Published values of several laboratories.
Protocols differ between the studies behind these lines. Numbers after ± are the reported error.
rep main protease: Replicase polyprotein 1ab, main protease (rep, Severe acute respiratory syndrome coronavirus 2, UniProt P0DTD1)
uncharacterized protein: uncharacterized protein (Anopheles coluzzii, UniProt A0A6E8VQK1)
Spike glycoprotein: Spike glycoprotein (Severe acute respiratory syndrome coronavirus 2, UniProt P0DTC2)
gag-pol reverse transcriptase: Gag-Pol polyprotein, reverse transcriptase (gag-pol, Human immunodeficiency virus type 1 group M subtype B, UniProt P04585)
Sequence of UniProt P20782 (whole entry, looked up): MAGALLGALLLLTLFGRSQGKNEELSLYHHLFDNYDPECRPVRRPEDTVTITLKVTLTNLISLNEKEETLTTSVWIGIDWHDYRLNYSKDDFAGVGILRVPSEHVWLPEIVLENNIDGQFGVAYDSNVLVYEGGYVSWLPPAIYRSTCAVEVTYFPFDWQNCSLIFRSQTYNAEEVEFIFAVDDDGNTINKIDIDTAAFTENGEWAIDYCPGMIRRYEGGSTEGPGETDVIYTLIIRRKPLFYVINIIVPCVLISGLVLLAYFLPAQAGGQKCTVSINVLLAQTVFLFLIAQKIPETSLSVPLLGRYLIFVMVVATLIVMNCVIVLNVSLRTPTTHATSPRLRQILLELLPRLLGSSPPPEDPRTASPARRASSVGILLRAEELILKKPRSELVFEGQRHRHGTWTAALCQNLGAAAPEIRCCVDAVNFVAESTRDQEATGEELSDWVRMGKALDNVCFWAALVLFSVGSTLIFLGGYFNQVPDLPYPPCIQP
Sequence of UniProt P04756 (whole entry, looked up): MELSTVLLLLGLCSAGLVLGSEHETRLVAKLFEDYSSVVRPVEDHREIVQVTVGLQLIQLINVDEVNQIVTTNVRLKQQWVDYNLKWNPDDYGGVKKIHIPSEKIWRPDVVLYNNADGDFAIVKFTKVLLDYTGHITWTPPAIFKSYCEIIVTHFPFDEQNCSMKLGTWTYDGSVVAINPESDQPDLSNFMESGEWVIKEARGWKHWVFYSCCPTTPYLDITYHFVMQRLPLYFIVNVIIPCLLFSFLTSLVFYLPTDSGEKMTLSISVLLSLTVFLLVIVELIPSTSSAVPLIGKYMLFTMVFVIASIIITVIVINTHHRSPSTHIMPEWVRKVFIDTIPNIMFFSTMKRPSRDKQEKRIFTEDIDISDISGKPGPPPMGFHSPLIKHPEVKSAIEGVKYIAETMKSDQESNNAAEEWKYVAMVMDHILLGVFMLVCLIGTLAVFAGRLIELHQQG
Sequence of UniProt P02716 (whole entry, looked up): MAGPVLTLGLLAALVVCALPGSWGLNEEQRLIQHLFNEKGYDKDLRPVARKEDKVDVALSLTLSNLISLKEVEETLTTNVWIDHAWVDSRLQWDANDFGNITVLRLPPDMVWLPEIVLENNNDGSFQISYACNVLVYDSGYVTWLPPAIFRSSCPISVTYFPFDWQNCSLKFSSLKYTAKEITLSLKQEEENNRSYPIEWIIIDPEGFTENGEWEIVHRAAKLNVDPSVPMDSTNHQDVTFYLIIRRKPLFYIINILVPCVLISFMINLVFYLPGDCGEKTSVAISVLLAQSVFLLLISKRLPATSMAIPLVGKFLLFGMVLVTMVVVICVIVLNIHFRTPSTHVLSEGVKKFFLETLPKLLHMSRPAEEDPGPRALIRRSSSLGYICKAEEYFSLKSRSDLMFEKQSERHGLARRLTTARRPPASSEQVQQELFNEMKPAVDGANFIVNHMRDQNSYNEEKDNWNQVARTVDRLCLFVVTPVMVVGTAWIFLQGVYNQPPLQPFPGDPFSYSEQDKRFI

`O=C(c1ccc2c(c1)COC2)N1CCCC[C@H](C2CN(C(=O)c3cncc4[nH]cnc34)C2)C1` gave an inhibition of 14.2% (rep main protease; enzyme activity, inhibitor; 5 µM, run 1).
The AC50 of `Cn1cc(CN2CCCC(COc3ccccc3C(=O)N3CCCCC3)C2)c2ccccc21` (centres unmarked) is reported as 12.6 µM (SARS-CoV-2; cytopathic effect, cell-based CPE; USA_WA1/2020; round 1, 5-point dilution).
`Cn1cnc(Cn2c(=O)[nH]/c(=N\c3cc4cn(C)nc4cc3Cl)n(Cc3cc(F)c(F)cc3F)c2=O)n1`: “patients with adverse event” 0% (human, mild renal impairment; oral, 375 mg, vessel puncture site haemorrhage TEAE, Severe severity).
For `O=C(N[C@@H](CNC(=O)[C@@H]1CCCc2[nH]cnc21)c1ccc2ccccc2c1)c1cncc(F)c1`, the inhibition was 10.2% (rep main protease; enzyme activity, inhibitor; 5 µM, run 2).
`Cc1cn([C@H]2C[C@H](O)[C@@H](COP(=O)(O)OP(=O)(O)OP(=O)(O)O)O2)c(=O)[nH]c1=O` gave a Km of 1620 ± 660 µM (Gag-Pol polyprotein, reverse transcriptase (gag-pol, Human immunodeficiency virus type 1 group M subtype B, UniProt P04585, K653N); nucleotide misinsertion, steady-state kinetics; K66N mutant RT, added: opposite template T).
The inhibition of `CC(=O)N[C@@H](CC(C)C)C(=O)N[C@@H](CC(C)C)C(=O)N[C@H](C=O)CCCN=C(N)N.CC(=O)N[C@@H](CC(C)C)C(=O)N[C@@H](CC(C)C)C(=O)N[C@H](C=O)CCCN=C(N)N.O=S(=O)(O)O` is reported as 4.56% (rep main protease; reporter gene (Gaussia luciferase), inhibitor; 20 µM).
The kcat of `Nc1ncnc2c1ncn2[C@H]1C[C@H](O)[C@@H](COP(=O)(O)OP(=O)(O)OP(=O)(O)O)O1` is reported as 0.0228 ± 0.0065 s⁻¹ (Gag-Pol polyprotein, reverse transcriptase (gag-pol, Human immunodeficiency virus type 1 group M subtype B, UniProt P04585, K653T); substrate; K66T mutant, added: G:A mismatched primer template).
`O=C(NC[C@H](NC(=O)c1cncc2ccccc12)c1ccc2ccccc2c1)C1=COCC1` has an inhibition of 13.3% (rep main protease; enzyme activity, inhibitor; 5 µM, run 1).
`COc1cc2c3cc1Oc1cc(ccc1O)C[C@@H]1c4c(cc(OC)c(O)c4Oc4ccc(cc4)C[C@@H]3N(C)CC2)CC[N+]1(C)C` has an inhibition of 28% (Chrnd/Chrna1/Chrne (Mus musculus, UniProt P02716+P04756+P20782); end-plate current peak height, two-electrode voltage clamp; mouse hemidiaphragm; 0.1 µM, AChE poisoned).
For `O=C(NC[C@H](NC(=O)c1cnoc1-c1ccccc1)c1ccc2ccccc2c1)c1cn[nH]n1`, the inhibition was 10.5% (rep main protease; enzyme activity, inhibitor; 5 µM, mean of runs).
With `CCOC(=O)CC(SP(=S)(OC)OC)C(=O)OCC` (centres unmarked) the remaining activity was 105% (uncharacterized protein; enzyme activity, inhibitor; Sf9 cell homogenate; 0.04545 µM, 0.1667 h, added: α-naphthyl acetate substrate; baseline: no inhibitor).
With `CC(C(=O)NC[C@H](NC(=O)c1[nH]nc2nc[nH]c(=O)c12)c1ccc2ccccc2c1)=C1CCC1` the inhibition was 15% (rep main protease; enzyme activity; 5 µM).
`CC(=O)Cc1cc(=O)c2c(C)cc(O)c([C@@H]3O[C@H](CO)[C@@H](O)[C@H](O)[C@H]3O)c2o1` has an inhibition of -0.136% (rep main protease; reporter gene (mKate2), inhibitor; 20 µM).
`C[C@H]1CC[C@@]2(OC1)O[C@H]1C[C@H]3[C@@H]4CC[C@@H]5C[C@@H](O[C@@H]6O[C@H](CO)[C@H](O)[C@H](O)[C@H]6O[C@@H]6O[C@H](CO)[C@@H](O)[C@H](O)[C@H]6O)CC[C@]5(C)[C@H]4CC[C@]3(C)[C@H]1[C@@H]2C` has a Kd of 7.21 µM (Spike glycoprotein; binding).
The inhibition of `CCCC(C)NC(=O)c1ccc(Cl)c(Cl)c1` (centres unmarked) is reported as 0.196% (rep main protease; viral replication, mKate2 reporter; SARS-CoV-2; 20 µM).
The kcat of `Nc1nc2c(ncn2[C@H]2C[C@H](O)[C@@H](COP(=O)(O)OP(=O)(O)OP(=O)(O)O)O2)c(=O)[nH]1` is reported as 0.092 ± 0.0095 s⁻¹ (gag-pol reverse transcriptase; nucleotide misinsertion, steady-state kinetics; wild-type RT, added: opposite template T).
For `CNC(=O)[C@@H](NC(=O)[C@H](CC(C)C)[C@H](O)C(=O)NO)C(C)(C)C`, “complete inhibition concentration” read 0.1 µM (snake venom metalloproteinase (Daboia russelii venom); protease activity, inhibitor; added: azocasein substrate).
The inhibition of `CN(C)C(=O)COC(=O)Cc1ccc(OC(=O)c2ccc(NC(=N)N)cc2)cc1` is reported as 4.3% (rep main protease; reporter gene (Gaussia luciferase), inhibitor; 20 µM).
`O=C(N[C@@H]1CC[C@@H]2CCN(c3nc4[nH]ncc4c(=O)[nH]3)[C@H]1C2)c1ccc2c(c1)C(=O)NCC2` gave an inhibition of 11.7% (rep main protease; enzyme activity, inhibitor; 5 µM, run 1).
For `CCN(CC)c1nc(C)cc(OP(=S)(OC)OC)n1`, the remaining activity was 109% (uncharacterized protein; enzyme activity, inhibitor; Sf9 cell homogenate; 0.2294 µM, 0.1667 h, added: α-naphthyl acetate substrate; baseline: no inhibitor).
For `Cc1cn([C@H]2C=C[C@@H](COP(=O)(O)OP(=O)(O)OP(=O)(O)O)O2)c(=O)[nH]c1=O`, the fold resistance was ~2 fold (Gag-Pol polyprotein, reverse transcriptase (gag-pol, Human immunodeficiency virus type 1 group M subtype B, UniProt P04585, K653A); reverse transcriptase activity, inhibitor; HIV-1; baseline: K66A mutant over wild type).
For `O=C(O[C@@H]1Cc2c(O)cc(O)cc2O[C@@H]1c1cc(O)c(O)c(O)c1)c1cc(O)c(O)c(O)c1`, the Kd was 11.5 µM (Spike glycoprotein; binding, biolayer interferometry).
The inhibition of `CC(C)[C@H](O)C(=O)N[C@@H](C)C(=O)N[C@@H]1C(=O)N(C)c2ccccc2-c2ccccc21` is reported as 0.713% (rep main protease; viral replication, Gluc reporter; SARS-CoV-2; 20 µM).
For `Nc1ccn([C@H]2C[C@H](O)[C@@H](COP(=O)(O)OP(=O)(O)OP(=O)(O)O)O2)c(=O)n1`, the kcat was 0.055 ± 0.00817 s⁻¹ (gag-pol reverse transcriptase; nucleotide misinsertion, steady-state kinetics; wild-type RT, added: opposite template T).
For `CSCC[C@H](NC(=O)[C@H](CCCNC(=N)N)NC(=O)[C@H](Cc1ccccc1)NC(=O)[C@H](CS)NC(=O)[C@H](C)NC(=O)[C@@H](NC(=O)[C@@H](NC(=O)[C@H](C)NC(=O)[C@H](CCCNC(=N)N)NC(=O)[C@H](CCCNC(=N)N)NC(=O)[C@H](CCCNC(=N)N)NC(=O)[C@H](CCC(N)=O)NC(=O)[C@H](CCCCN)NC(=O)[C@H](CO)NC(=O)[C@H](CC(C)C)NC(=O)[C@H](CC(C)C)NC(=O)[C@H](CCCCN)NC(=O)[C@H](Cc1c[nH]cn1)NC(=O)[C@H](Cc1c[nH]c2ccccc12)NC(=O)[C@@H](NC(=O)[C@H](C)NC(=O)[C@H](CCCCN)NC(=O)[C@H](CCCCN)NC(=O)[C@H](CO)NC(=O)[C@H](CCCCN)NC(C)=O)C(C)C)C(C)C)C(C)C)C(=O)N[C@H](C(=O)N1CCC[C@H]1C(=O)N[C@@H](CC(C)C)C(=O)N[C@@H](Cc1ccc(O)cc1)C(=O)N[C@@H](CC(N)=O)C(N)=O)[C@@H](C)O`, the apparent ΔG1 was -8.4 ± 0.03 kcal/mol (calmodulin 1-148 sites I and II; calcium binding, Phe fluorescence titration; 12 µM, pH 7.4, 22 °C, added: 6 µM calmodulin).
With `CN1CCCC1c1cc(C(=O)N2C[C@@H](F)C[C@H]2CNC(=O)c2cc3c(=O)[nH]ccn3n2)n[nH]1` (some centres unmarked) the inhibition was 14.8% (rep main protease; enzyme activity, inhibitor; 5 µM).
For `COc1cc(O)cc(OC)c1`, the inhibition was -1.02% (rep main protease; reporter gene (mKate2), inhibitor; 20 µM).
`Nc1ncnc2c([C@@H]3N[C@H](CO)[C@@H](O)[C@H]3O)c[nH]c12` has an inhibition of 90.8% (Marburg virus; surface glycoprotein expression; HeLa, Musoke; 25 µM, 1 h).
The inhibition of `Cc1cc(Nc2ncc(Cl)c(Nc3ccccc3S(=O)(=O)C(C)C)n2)c(OC(C)C)cc1C1CCNCC1` is reported as -1.26% (rep main protease; reporter gene (mKate2), inhibitor; 20 µM).
`Cc1nc(C(=O)N2CC[C@H](N[C@@H]3N=C(c4ccccc4)Nc4ccccc43)C2)cc(=O)[nH]1` has an inhibition of 12% (rep main protease; enzyme activity, inhibitor; 5 µM, mean of runs).
`CC1=C(C(=O)OC2CCCCC2)C(c2ccc([N+](=O)[O-])cc2)C2=C(CC(C)(C)CC2=O)N1` (centres unmarked) has an inhibition of -5.37% (rep main protease; viral replication, Gluc reporter; SARS-CoV-2; 20 µM).
For `CC[C@H](C)[C@H](NC(=O)[C@H](CC(C)C)NC(=O)[C@H](Cc1c[nH]c2ccccc12)NC(=O)[C@H](CCC(N)=O)NC(=O)[C@@H](NC(=O)[C@H](Cc1ccccc1)NC(=O)[C@H](C)NC(=O)[C@H](CCCCNC(=O)COCCOCCNC(=O)COCCOCCNC(=O)CC[C@H](NC(=O)CCCCCCCCCCCCCCCCCCC(=O)O)C(=O)O)NC(=O)[C@H](CCC(N)=O)NC(=O)[C@H](C)NC(=O)[C@@H](NC(=O)[C@H](CCCCN)NC(=O)[C@H](CC(=O)O)NC(=O)[C@H](CC(C)C)NC(=O)C(C)(C)NC(=O)[C@@H](NC(=O)[C@H](CO)NC(=O)[C@H](Cc1ccc(O)cc1)NC(=O)[C@H](CC(=O)O)NC(=O)[C@H](CO)NC(=O)[C@@H](NC(=O)[C@H](Cc1ccccc1)NC(=O)[C@@H](NC(=O)CNC(=O)[C@H](CCC(=O)O)NC(=O)C(C)(C)NC(=O)[C@@H](N)Cc1ccc(O)cc1)[C@@H](C)O)[C@@H](C)O)[C@@H](C)CC)[C@@H](C)CC)C(C)C)C(=O)N[C@@H](C)C(=O)NCC(=O)NCC(=O)N1CCC[C@H]1C(=O)N[C@@H](CO)C(=O)N[C@@H](CO)C(=O)NCC(=O)N[C@@H](C)C(=O)N1CCC[C@H]1C(=O)N1CCC[C@H]1C(=O)N1CCC[C@H]1C(=O)N[C@@H](CO)C(N)=O`, “subjects with adverse event” read 16.7% (measured: treatment-emergent catheter site erythema; healthy subjects; 4.5 mg, multiple ascending dose).

Excerpt of the above:
The inhibition of `CN(C)C(=O)COC(=O)Cc1ccc(OC(=O)c2ccc(NC(=N)N)cc2)cc1` is reported as 4.3% (rep main protease; reporter gene (Gaussia luciferase), inhibitor; 20 µM).
`O=C(N[C@@H]1CC[C@@H]2CCN(c3nc4[nH]ncc4c(=O)[nH]3)[C@H]1C2)c1ccc2c(c1)C(=O)NCC2` gave an inhibition of 11.7% (rep main protease; enzyme activity, inhibitor; 5 µM, run 1).
For `CCN(CC)c1nc(C)cc(OP(=S)(OC)OC)n1`, the remaining activity was 109% (uncharacterized protein; enzyme activity, inhibitor; Sf9 cell homogenate; 0.2294 µM, 0.1667 h, added: α-naphthyl acetate substrate; baseline: no inhibitor).
For `Cc1cn([C@H]2C=C[C@@H](COP(=O)(O)OP(=O)(O)OP(=O)(O)O)O2)c(=O)[nH]c1=O`, the fold resistance was ~2 fold (Gag-Pol polyprotein, reverse transcriptase (gag-pol, Human immunodeficiency virus type 1 group M subtype B, UniProt P04585, K653A); reverse transcriptase activity, inhibitor; HIV-1; baseline: K66A mutant over wild type).
